Results collected from several papers.
Compare with care: the assays were run in different laboratories.
T1: DNA aptamer, truncated, engineered stem; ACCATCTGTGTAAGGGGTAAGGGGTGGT
T2: DNA aptamer; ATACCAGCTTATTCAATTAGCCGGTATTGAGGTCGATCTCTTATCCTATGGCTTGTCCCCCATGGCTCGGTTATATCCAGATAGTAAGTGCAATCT
T3: DNA aptamer; CGGGGTGAAACGGGTCCCG
T4: DNA aptamer; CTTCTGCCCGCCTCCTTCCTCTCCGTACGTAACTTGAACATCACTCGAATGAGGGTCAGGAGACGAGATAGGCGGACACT
T5: DNA aptamer; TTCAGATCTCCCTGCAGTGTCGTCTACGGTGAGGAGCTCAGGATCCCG
T6: DNA aptamer; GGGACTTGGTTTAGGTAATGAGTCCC
T7: DNA aptamer; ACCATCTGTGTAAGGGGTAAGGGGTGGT
T8: DNA aptamer; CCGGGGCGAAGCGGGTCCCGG
T9: DNA aptamer; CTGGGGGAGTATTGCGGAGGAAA
T10: DNA aptamer; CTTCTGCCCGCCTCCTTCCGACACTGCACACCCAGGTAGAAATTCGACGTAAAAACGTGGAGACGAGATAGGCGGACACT
T11: DNA aptamer, 3' extension; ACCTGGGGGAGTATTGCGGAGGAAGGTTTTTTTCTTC
T12: DNA aptamer 25 nt core; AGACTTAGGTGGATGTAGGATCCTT
T13: DNA aptamer; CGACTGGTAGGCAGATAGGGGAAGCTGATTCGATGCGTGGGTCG

| Structure (SMILES) | target | assay | setting | Kd [µM] |
| --- | --- | --- | --- | --- |
| COc1cccc2c1C(=O)c1c(O)c3c(c(O)c1C2=O)C[C@@](O)(C(=O)CO)C[C@@H]3O[C@H]1C[C@H](N)[C@H](O)[C@H](C)O1 | T1, DNA aptamer, truncated, engineered stem | electrochemical aptamer sensor | apparent, one-site fit | 0.824 |
| NC[C@H]1O[C@H](O[C@H]2[C@H](O)[C@@H](O[C@H]3O[C@H](CO)[C@@H](O)[C@H](N)[C@H]3O)[C@H](N)C[C@@H]2N)[C@H](O)[C@@H](O)[C@@H]1O | T2, DNA aptamer | MST |  | 260 |
| C[C@@H]1Cc2c(Cl)cc(C(=O)N[C@@H](Cc3ccccc3)C(=O)O)c(O)c2C(=O)O1 | T3, DNA aptamer | ITC | pH 7.4, 23 °C, reverse titration; single-site fit, added: 10 mM MgCl2 | 5.5 |
| CC(C)=CCC[C@](C)(O[C@@H]1O[C@H](CO)[C@@H](O)[C@H](O)[C@H]1O)[C@H]1CC[C@]2(C)[C@@H]1[C@H](O)C[C@@H]1[C@@]3(C)CC[C@H](O)C(C)(C)[C@@H]3[C@@H](O[C@@H]3O[C@H](CO)[C@@H](O)[C@H](O)[C@H]3O[C@@H]3O[C@@H](C)[C@H](O)[C@@H](O)[C@H]3O)C[C@]12C | T4, DNA aptamer | fluorescence of eluted aptamer | pH 8.5, room temperature | 16.9 |
| O=[N+]([O-])N=C1NCCN1Cc1ccc(Cl)nc1 | T5, DNA aptamer | differential pulse voltammetry | 30 min, pH 7.5, Na+ 150 mM, Mg2+ 2 mM | 0.0128 |
| NC[C@H]1O[C@H](O[C@H]2[C@H](O)[C@@H](O[C@H]3O[C@H](CO)[C@@H](O)[C@H](N)[C@H]3O)[C@H](N)C[C@@H]2N)[C@H](N)C[C@@H]1O | T6, DNA aptamer | intermittent pulse amperometry | NaCl 100 mM, apparent | 5 |
| COc1cccc2c1C(=O)c1c(O)c3c(c(O)c1C2=O)C[C@@](O)(C(=O)CO)C[C@@H]3O[C@H]1C[C@H](N)[C@H](O)[C@H](C)O1 | T7, DNA aptamer | SWV | pH 7.4, apparent | 1.51 |
| C[C@@H]1Cc2ccc(C(=O)N[C@@H](Cc3ccccc3)C(=O)O)c(O)c2C(=O)O1 | T8, DNA aptamer | ITC | pH 7.4, 23 °C, reverse titration; single-site fit, added: 10 mM MgCl2 | 59.9 |
| Nc1ncnc2c1ncn2[C@@H]1O[C@H](COP(=O)(O)OP(=O)(O)OP(=O)(O)O)[C@@H](O)[C@H]1O | T9, DNA aptamer | electrochemical aptamer sensor | apparent, in serum | 17 |
| CC(C)=CCC[C@](C)(O[C@@H]1O[C@H](CO[C@@H]2O[C@H](CO)[C@@H](O)[C@H](O)[C@H]2O)[C@@H](O)[C@H](O)[C@H]1O)[C@H]1CC[C@]2(C)[C@@H]1[C@H](O)C[C@@H]1[C@@]3(C)CC[C@H](O[C@@H]4O[C@H](CO)[C@@H](O)[C@H](O)[C@H]4O[C@@H]4O[C@H](CO)[C@@H](O)[C@H](O)[C@H]4O)C(C)(C)[C@@H]3CC[C@]12C | T10, DNA aptamer | fluorescence of eluted aptamer | pH 8.5, room temperature | 12.5 |
| Nc1ncnc2c1ncn2[C@@H]1O[C@H](COP(=O)(O)OP(=O)(O)OP(=O)(O)O)[C@@H](O)[C@H]1O | T11, DNA aptamer, 3' extension | square wave voltammetry | apparent, electrochemical aptamer sensor, assumed saturation | 134 |
| CC(=O)N[C@H]1C(O)O[C@H](CO)[C@H](O)[C@@H]1O (stereo partly shown) | T12, DNA aptamer 25 nt core | SPR |  | 0.0598 |
| NCCc1c[nH]c2ccc(O)cc12 | T13, DNA aptamer | single-molecule carbon nanotube FET | pH 7.0 | 0.0316 |

Excerpt of the above:
| Structure (SMILES) | target | assay | setting | Kd [µM] |
| --- | --- | --- | --- | --- |
| CC(=O)N[C@H]1C(O)O[C@H](CO)[C@H](O)[C@@H]1O (stereo partly shown) | T12, DNA aptamer 25 nt core | SPR |  | 0.0598 |
